Experimental data pooled from the literature.
A part holds a random share of what one study measured.

Study 1 — method: protein-binding microarray; form: double-stranded DNA, one strand shown; matrix: in vitro; concentration: 940 nM top; notes: 60-bp whole probe; with: salmon DNA 0.4 mg/ml; baseline: random background probes; reading: higher = stronger binding; measurement: fitted relative affinity; shared flanks, not repeated: GCCTAGCAC … GTCTTGATTCGCTTGACGCTGCTG
Target: Interferon regulatory factor 5, full length, phosphomimetic (IRF5, Homo sapiens, UniProt Q13568-2, residues 1-514, S451D/S453D/S456D/S462D)
TTAGGCTTCGGGACTGGGTTAGTGCTA: -0.261 z-score
TTAGGTATCGGGTACCGGTTAGTGCTA: 6.75 z-score
GACGATCTCCTTCTCCTGACGTGCTAG: 0.301 z-score
GAAGATTTCGGGTATCGAGACGTGCTA: 1.39 z-score
TTAGGTCTCGGGCTGGGTTAGTGCTAG: 1.15 z-score
TCACAGATGTTTTTCATACTGTGCTAG: 0.105 z-score
TTAGATTTCAGTGTCGATTAGTGCTAG: 0.889 z-score
TCATCTTTCCATACTGCACTGTGCTAG: 1.22 z-score
GGCGGTTTCGACACTGGGGACGTGCTA: 7.29 z-score
TCATTTTACTTTCTATCACTGTGCTAG: 3.12 z-score
TTCGGTATCGGGTATCGGTTAGTGCTA: 7.5 z-score
GACGGTATCGTCTTTCGGGACGTGCTA: 3.13 z-score
CCAGTTCTGGGAAATATTTACGTGCTA: -0.0699 z-score
TTAGATTCCAGTTCCGATTAGTGCTAG: 1.54 z-score
TTAGGTTTCGGGTATCGGTGAGTGCTA: 11 z-score
TTACGTCTCCTTTTCCTTTAGTGCTAG: 1.53 z-score
TCAGCTTTTTTTTTTTTACTGTGCTAG: 1.23 z-score
TTAGGTTTCCTTTTCCTTTCGTGCTAG: 2.07 z-score
TTAGATTTCAGACTGGATCAGTGCTAG: -0.16 z-score

Study 2 — method: RNA Bind-n-Seq; form: RNA; matrix: in vitro; concentration: 100 nM; baseline: input RNA pool; reading: higher = stronger binding; measurement: bound/input enrichment
Target: RING finger protein unkempt homolog, zinc fingers 1-6, SBP tag (UNK, Homo sapiens, UniProt Q9C0B0, residues 30-357)
UniProt Q9C0B0, sequence (30-357, looked up): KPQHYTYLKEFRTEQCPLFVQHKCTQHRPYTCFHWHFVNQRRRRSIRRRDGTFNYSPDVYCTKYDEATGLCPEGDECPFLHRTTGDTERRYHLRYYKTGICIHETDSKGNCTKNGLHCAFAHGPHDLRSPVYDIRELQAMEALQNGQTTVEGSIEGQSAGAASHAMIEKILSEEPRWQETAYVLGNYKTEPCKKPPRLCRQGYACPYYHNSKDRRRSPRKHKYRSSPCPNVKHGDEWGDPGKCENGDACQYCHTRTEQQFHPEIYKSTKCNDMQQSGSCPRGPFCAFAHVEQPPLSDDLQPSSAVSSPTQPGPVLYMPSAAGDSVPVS
Notes: RNA with constant flanks, vertebrate orthologous sites, ends assumed
Shared flanks, not repeated: GGGAGUUCUACAGUCCGACGAUC … CAACAGAGGAUUGAGCAUCA
CACAAUCUCUACUUAAGUAGGUUUUUACAUACCAAGUUAAGCCUUCAUUUUACAUAUUUACAUCUUUUCUCCAGAGGAGAUAAAAGAAUCUCGUGCUUAAAGUUACAUGUGGUCUUUGCC: 0.347 ratio
CAUUUUCUUACUUUAGGUAUCAUUGCCCAGUGCCCAAGAUCUUUUACGUUCAGCUGACUGUAGGAAAUAAUGAAUUUUUUGGGGAAGGGAAGACUCGACAAGCCGCUAGACACAAUGCCG: 1.24 ratio
UACCCUCCCAGGACCCAGUGGUGCGGCCUGGGCCCACUGGCCACAUCAGCCAGGCCGUUUCAGCCUUUUUUUUUUUUUUUUUAAUAGUGCCCUUAUUAUUAUCCUAUACAUAUGCAGAGA: 1.79 ratio
UACUGGUAGGAAACAGGUCUAUCCAGAGAAGUAAUGCUCUAUAAAUAUUAUUAAAUAAUUCAGCUAUAGUUUUUUUUAAGUAUUAAAUUAUAUUUGAAGCAGUUAAAUGAAUUUGAGAAU: 0.411 ratio
UCCUCUCAACCCCAUUUCUUCUGUUUCAUAGUGCAGAAGUAUUCUUUUCACCUGUAUCUUUAGUGGACUUGUUUUAAUUUUAGAGGAAUUUCCAGGACAGACACUGUGAGCUGACAUGGG: 1.16 ratio
UCAAGGGUUUAGUUAUUUUUAUUUUUUCUUUCCCCUCAAUCCUUUUUUAUUUUUAAAAACUAGUUCUUUUGUAAUGUGGUGUUCAAAACAAGAUUGAAUACGGGCACUCCACCUCUUUAG: 2.81 ratio
AAAACCCCGAUUUUAGAUGUGAUAUCUAGGCUUUCAUUCCAGUUGUUUUUGUCUUUUGUUUAGAUACCACUUUUAAAUUCUUGCAUUUUAGUAAGAAAGCUAUCUUUUUAUGGAUGUUAG: 0.625 ratio
ACACUUGCAUUGUGGCGCAUAGACGACAUGGAAGUAGACCAGCUCUGCUGAUUUGAAACUUAGAUUUUUAAUUAUGUACUGGGGACAGGUUUUUGUCGCUUUACAUUGCUUCCUAGUUUA: 2.26 ratio

Study 3 — method: RNA Bind-n-Seq; form: RNA; matrix: in vitro; concentration: 365 nM; baseline: no-protein control; reading: higher = stronger binding; measurement: RBNS enrichment (R)
Target: RNA binding protein fox-1 homolog 2, RRM domain, GST-SBP tag (RBFOX2, Homo sapiens, UniProt O43251-10, residues 100-194)
Notes: natural RNA segment, single round, ends assumed
Shared flanks, not repeated: GGGAGUUCUACAGUCCGACGAUC … UGGAAUUCUCGGGUGCCAA
Construct (chain): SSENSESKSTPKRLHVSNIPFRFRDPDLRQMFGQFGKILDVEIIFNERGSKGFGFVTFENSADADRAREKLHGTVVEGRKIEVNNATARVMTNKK
UCUGAGCCUCACUGCUGCUGCAAGGUGGGGAAACUGUAAGUGAACCCCUGUGGGUGCGGGGGAGGGUAUCCGGUGCGCAGGGAGGUGGCCAGCGCCCCCGGGCACUGCUG: 0.702
CAGGAUGCUAGAUUAUUGGCUGGGAGGUGGGCAAGUGGCAGCCCAGCUGAAGCAAGAGGCUGAUUGACUGGCUGCUCACUCAGGCAGGUGGCCUGCCCUGGCAUCCUGUA: 1.42
CCUGUUCCUGAUGGCCCGUUAUUGGACACUGGUGAUGCUAUUAUCCUGUAUUAUUUAUUAAUAUCCUACCUAGAUGCUUGUAUGAGUACAAAGCAUAAAGAAACAGAUUU: 0.493
UGAGCUGGAUAGACUUGGGAUGGGGAGGGAGGGAGUUUUGUCUGUCUCCCUCCCCUCUCAGAACAUACUGAUUGGGAGGUGCGUGUUCAGCAGAACCUGCACACAGGACA: 0.187
UUUCUACUAACUCCUUCCUUAAAGGCCAUAUCACUCCAUUUGCAUUAUUUGUGCAAAUGCCAGGGUUGGUUUUUAUUUUUAUUUUUGCUAUUUACCUAAAAAAAGAAAAU: 0.828
GGGAAGACAAAGGAAACGUCUUUGAGAAGCCCCUUCAUAUUUAUUUAUUUAUCUCUUCCUGAACCAUGAAUUUCAUAUGUGGAAUAUUGCUAUAUUGACAGAUUCUUGCC: 0.556
AGACUAAUUCUUGUCAGGCAUUUUUGAAAAGGCUGAUUAUGUGUAUCAAGGUACAGCAUCGUAGGGUUCCCCUAAACUUGCCCUGUUUUUGUUUUUUUAGUUUGUUAUCC: 2.22
GGAAGGUGUACUGGACGGCGGAGAGGAGGGCUCCCUGGCCCCUAAGUGUGGAUGCAGAGAGGUGGAGCCCAGGAAGGGUCUCUGCUUAGGCUGCAGGGGUGCCAAUGGCA: 2.78

Study 4 — method: protein binding microarray; form: double-stranded DNA, one strand shown; matrix: in vitro; concentration: not given; baseline: not given; reading: higher = stronger binding; measurement: E-score
Target: Histone acetyltransferase KAT6A, winged helix 1, GST fusion (KAT6A, Homo sapiens, UniProt Q92794, residues 1-85)
Notes: 8-mer, flanks averaged, mean of 2 arrays, mostly near background
Residues (chain): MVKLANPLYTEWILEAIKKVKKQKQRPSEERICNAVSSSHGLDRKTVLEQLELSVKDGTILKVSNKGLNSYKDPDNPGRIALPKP
ACTAGGGC: -0.0742
CATCTTCA: -0.266
CTACAACC: 0.00238
CGCCATCC: 0.0642
CAAAACGC: 0.08
CAAGGTTC: -0.0288
CCGATCAA: 0.0891
GCGCCGGA: 0.413
TAACCCAA: -0.207
ACCCACCG: 0.128
AGCAATTG: -0.0331
CCTACCCG: 0.212
CGAAACAC: 0.0134
ATCGTACA: -0.0928
CCAGGCTC: -0.182
AATTAGGG: -0.115
CAAAGCGA: -0.0537
AACATAGA: -0.081
TATTGTGA: -0.14
AAATCATT: -0.167
AAGATGCG: 0.0115
ACTGACGG: 0.148
ACGAAAGG: -0.0353
AGGTCCAT: -0.24
ACCGGACT: 0.0685

For quick reference, copied from above (study 1):
TCATCTTTCCATACTGCACTGTGCTAG: 1.22 z-score
GGCGGTTTCGACACTGGGGACGTGCTA: 7.29 z-score
TCATTTTACTTTCTATCACTGTGCTAG: 3.12 z-score
TTCGGTATCGGGTATCGGTTAGTGCTA: 7.5 z-score
GACGGTATCGTCTTTCGGGACGTGCTA: 3.13 z-score
